# Experimental data gathered from unrelated publications.
# Each line is one published result; not all experiments were run side by side.
# U2AF2: U2AF2 148-342 (Homo sapiens, UniProt P26368)
# Chain of UniProt P26368 (whole entry, looked up): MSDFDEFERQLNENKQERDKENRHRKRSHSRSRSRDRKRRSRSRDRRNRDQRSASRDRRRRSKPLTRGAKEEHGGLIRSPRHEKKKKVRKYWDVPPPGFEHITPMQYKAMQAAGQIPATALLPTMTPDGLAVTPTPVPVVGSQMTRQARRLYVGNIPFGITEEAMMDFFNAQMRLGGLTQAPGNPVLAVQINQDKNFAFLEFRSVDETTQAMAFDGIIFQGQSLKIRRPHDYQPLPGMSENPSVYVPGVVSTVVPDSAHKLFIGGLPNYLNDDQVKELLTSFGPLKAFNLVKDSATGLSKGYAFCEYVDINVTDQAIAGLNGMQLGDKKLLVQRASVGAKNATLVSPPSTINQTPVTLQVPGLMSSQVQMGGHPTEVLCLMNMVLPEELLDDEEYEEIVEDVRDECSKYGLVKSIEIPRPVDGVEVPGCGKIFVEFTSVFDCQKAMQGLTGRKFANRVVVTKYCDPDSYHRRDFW
# B1: mcsB C167A (Bacillus subtilis, UniProt P37570); chain MSLKHFIQDALSSWMKQKGPESDIVLSSRIRLARNFEHIRFPTRYSNEEASSIIQQFEDQFSEQEIPGIGKFVLIRMNDAQPLEKRVLVEKHLISPNLTESPFGGCLLSENEEVSVMLNEEDHIRIQCLFPGFQLLEAMKAANQVDDWIEEKVDYAFNEQRGYLTSAPTNVGTGLRASVMMHLPALVLTRQINRIIPAINQLGLVVRGIYGEGSEAVGNIFQISNQITLGKSEQDIVEDLNSVAAQLIEQERSAREAIYQTSKIELEDRVYRSYGVLSNCRMIESKETAKCLSDVRLGIDLGIIKGLSSNILNELMILTQPGFLQQYSGGALRPNERDIRRAALIRERLHLEMNGKRQEDESI
# B2: SSO0001 Cas4 1-202 (Saccharolobus solfataricus, UniProt Q97TX9); selenomethionine; chain MITEFLLKKKLEEHLSHVKEENTIYVTDLVRCPRRVRYESEYKELAISQVYAPSAILGDILHLGLESVLKGNFNAETEVETLREINVGGKVYKIKGRADAIIRNDNGKSIVIEIKTSRSDKGLPLIHHKMQLQIYLWLFSAEKGILVYITPDRIAEYEINEPLDEATIVRLAEDTIMLQNSPRFNWECKYCIFSVICPAKLT
# B3: DPA 6-281 (Toxoplasma gondii, UniProt A0A7J6KBZ0); sequence looked up; chain IYKQFTSRTLLNFFEVAALTDGETNESVAAVCKIAAKDPAIVGVSVRPAFVRFIRQELVKSAPEVAGIKVCAAVNFPEGTGTPDTVSLEAVGALKDGADEIECLIDWRRMNENVADGESRIRLLVSEVKKVVGPKTLKVVLSGGELQGGDIISRAAVAALEGGADFLQTSSGLGATHATMFTVHLISIALREYMVRENERIRVEGINREGAAVRCIGIKIEVGDVHMAETADFLMQMIFENGPRSIVRDKFRVGGGFNLLKELRDCYESWDSVGVS
# B4: SUN5 (Homo sapiens, UniProt Q8TC36); sequence looked up; chain MPRSSRSPGDPGALLEDVAHNPRPRRIAQRGRNTSRMAEDTSPNMNDNILLPVRNNDQALGLTQCMLGCVSWFTCFACSLRTQAQQVLFNTCRCKLLCQKLMEKTGILLLCAFGFWMFSIHLPSKMKVWQDDSINGPLQSLRLYQEKVRHHSGEIQDLRGSMNQLIAKLQEMEAMSDEQKMAQKIMKMIHGDYIEKPDFALKSIGASIDFEHTSVTYNHEKAHSYWNWIQLWNYAQPPDVILEPNVTPGNCWAFEGDRGQVTIQLAQKVYLSNLTLQHIPKTISLSGSLDTAPKDFVIYGMEGSPKEEVFLGAFQFQPENIIQMFPLQNQPARAFSAVKVKISSNWGNPGFTCLYRVRVHGSVAPPREQPHQNPYPKRD
# B5: naaA 1-425 (Bradyrhizobium sp., UniProt D3WZ85); chain MAGSNDVAKVMKTLDGMREGLIQTAVELGSIEAPTGREGAAGDYVYEWMARNGFGPERVGVFDDRFNVVGRLRGTGGGASLSFNSHLDTIMAREDTARFADANDRIYHEAWHEEGRIYGYSVVNCKGPMACWLIAAKALKEAGAALKGDVVLTAVCGEIDCEPVDEFQGHDYLAEDIGARYAISHGAISDYALVAEATNFKPAWVEAGKVFLKVTVFAGPSRYTPYVPRPVAALDSPNAIVRMAKLVEALEEWADNYEKRYTREYGGGTVVPKVAIGAIRGGVPYKIYRFPELCSIYMDIRLNPDTNPLVVQREVEAVVSKLGLKAEVKPFLFRRGYEAQGIEPLQNALEVAHREVVGRPTERPGSPECSMWRDTNPYNELGIPSLTYGCGGGAGGGNTYFLVDDMLKAAKVYAMTAMDLCNRTP
# B6: gapA 2-331 (Escherichia coli, UniProt P0A9B2); chain TIKVGINGFGRIGRIVFRAAQKRSDIEIVAINDLLDADYMAYMLKYDSTHGRFDGTVEVKDGHLIVNGKKIRVTAERDPANLKWDEVGVDVVAEATGLFLTDETARKHITAGAKKVVMTGPSKDNTPMFVKGANFDKYAGQDIVSNASCTTNCLAPLAKVINDNFGIIEGLMTTVHATTATQKTVDGPSHKDWRGGRGASQNIIPSSTGAAKAVGKVLPELNGKLTGMAFRVPTPNVSVVDLTVRLEKAATYEQIKAAVKAAAEGEMKGVLGYTEDDVVSTDFNGEVCTSVFDAKAGIALNDNFVKLVSWYDNETGYSNKVLDLIAHISK
# B7: TGFBI 45-632 R124H (Homo sapiens, UniProt Q15582); sequence looked up; chain GPNVCAVQKVIGTNRKYFTNCKQWYQRKICGKSTVISYECCPGYEKVPGEKGCPAALPLSNLYETLGVVGSTTTQLYTDHTEKLRPEMEGPGSFTIFAPSNEAWASLPAEVLDSLVSNVNIELLNALRYHMVGRRVLTDELKHGMTLTSMYQNSNIQIHHYPNGIVTVNCARLLKADHHATNGVVHLIDKVISTITNNIQQIIEIEDTFETLRAAVAASGLNTMLEGNGQYTLLAPTNEAFEKIPSETLNRILGDPEALRDLLNNHILKSAMCAEAIVAGLSVETLEGTTLEVGCSGDMLTINGKAIISNKDILATNGVIHYIDELLIPDSAKTLFELAAESDVSTAIDLFRQAGLGNHLSGSERLTLLAPLNSVFKDGTPPIDAHTRNLLRNHIIKDQLASKYLYHGQTLETLGGKKLRVFVYRNSLCIENSCIAAHDKRGRYGTLFTMDRVLTPPMGTVMDVLKGDNRFSMLVAAIQSAGLTETLNREGVYTVFAPTNEAFRALPPRERSRLLGDAKELANILKYHIGDEILVSGGIGALVRLKSLQGDKLEVSLKNNVVSVNKEPVAEPDIMATNGVVHVITNVL
# B8: ccmK2 1-102 (Synechococcus elongatus, UniProt Q03511); chain MPIAVGMIETLGFPAVVEAADAMVKAARVTLVGYEKIGSGRVTVIVRGDVSEVQASVSAGLDSAKRVAGGEVLSHHIIARPHENLEYVLPIRYTEAVEQFRM
# B9: Pah F80A (Rattus norvegicus, UniProt P04176); sequence looked up; chain MAAVVLENGVLSRKLSDFGQETSYIEDNSNQNGAISLIFSLKEEVGALAKVLRLFEENDINLTHIESRPSRLNKDEYEFATYLDKRTKPVLGSIIKSLRNDIGATVHELSRDKEKNTVPWFPRTIQELDRFANQILSYGAELDADHPGFKDPVYRARRKQFADIAYNYRHGQPIPRVEYTEEEKQTWGTVFRTLKALYKTHACYEHNHIFPLLEKYCGFREDNIPQLEDVSQFLQTCTGFRLRPVAGLLSSRDFLGGLAFRVFHCTQYIRHGSKPMYTPEPDICHELLGHVPLFSDRSFAQFSQEIGLASLGAPDEYIEKLATIYWFTVEFGLCKEGDSIKAYGAGLLSSFGELQYCLSDKPKLLPLELEKTACQEYSVTEFQPLYYVAESFSDAKEKVRTFAATIPRPFSVRYDPYTQRVEVLDNTQQLKILADSINSEVGILCNALQKIKS
# B10: ADAR1 127-end 127-1226 I872T (human, UniProt P55265); sequence looked up; chain SSHFQELSIYQDQEQRILKFLEELGEGKATTAHDLSGKLGTPKKEINRVLYSLAKKGKLQKEAGTPPLWKIAVSTQAWNQHSGVVRPDGHSQGAPNSDPSLEPEDRNSTSVSEDLLEPFIAVSAQAWNQHSGVVRPDSHSQGSPNSDPGLEPEDSNSTSALEDPLEFLDMAEIKEKICDYLFNVSDSSALNLAKNIGLTKARDINAVLIDMERQGDVYRQGTTPPIWHLTDKKRERMQIKRNTNSVPETAPAAIPETKRNAEFLTCNIPTSNASNNMVTTEKVENGQEPVIKLENRQEARPEPARLKPPVHYNGPSKAGYVDFENGQWATDDIPDDLNSIRAAPGEFRAIMEMPSFYSHGLPRCSPYKKLTECQLKNPISGLLEYAQFASQTCEFNMIEQSGPPHEPRFKFQVVINGREFPPAEAGSKKVAKQDAAMKAMTILLEEAKAKDSGKSEESSHYSTEKESEKTAESQTPTPSATSFFSGKSPVTTLLECMHKLGNSCEFRLLSKEGPAHEPKFQYCVAVGAQTFPSVSAPSKKVAKQMAAEEAMKALHGEATNSMASDNQPEGMISESLDNLESMMPNKVRKIGELVRYLNTNPVGGLLEYARSHGFAAEFKLVDQSGPPHEPKFVYQAKVGGRWFPAVCAHSKKQGKQEAADAALRVLIGENEKAERMGFTEVTPVTGASLRRTMLLLSRSPEAQPKTLPLTGSTFHDQIAMLSHRCFNTLTNSFQPSLLGRKILAATIMKKDSEDMGVVVSLGTGNRCVKGDSLSLKGETVNDCHAEIISRRGFIRFLYSELMKYNSQTAKDSIFEPAKGGEKLQIKKTVSFHLYISTAPCGDGALFDKSCSDRAMESTESRHYPVFENPKQGKLRTKVENGEGTIPVESSDIVPTWDGIRLGERLRTMSCSDKILRWNVLGLQGALLTHFLQPIYLKSVTLGYLFSQGHLTRAICCRVTRDGSAFEDGLRHPFIVNHPKVGRVSIYDSKRQSGKTKETSVNWCLADGYDLEILDGTRGTVDGPRNELSRVSKKNIFLLFKKLCSFRYRRDLLRLSYGEAKKAARDYETAKNYFKKGLKDMGYGNWISKPQEEKNFYLCPV
# B11: TWNK 43-684 (Homo sapiens, UniProt Q96RR1); chain ETLQALDMPVLPVTATEIRQYLRGHGIPFQDGHSCLRALSPFAESSQLKGQTGVTTSFSLFIDKTTGHFLCMTSLAEGSWEDFQASVEGRGDGAREGFLLSKAPEFEDSEEVRRIWNRAIPLWELPDQEEVQLADTMFGLTKVTDDTLKRFSVRYLRPARSLVFPWFSPGGSGLRGLKLLEAKCQGDGVSYEETTIPRPSAYHNLFGLPLISRRDAEVVLTSRELDSLALNQSTGLPTLTLPRGTTCLPPALLPYLEQFRRIVFWLGDDLRSWEAAKLFARKLNPKRCFLVRPGDQQPRPLEALNGGFNLSRILRTALPAWHKSIVSFRQLREEVLGELSNVEQAAGLRWSRFPDLNRILKGHRKGELTVFTGPTGSGKTTFISEYALDLCSQGVNTLWGSFEISNVRLARVMLTQFAEGRLEDQLDKYDHWADRFEDLPLYFMTFHGQQSIRTVIDTMQHAVYVYDICHVIIDNLQFMMGHEQLSTDRIAAQDYIIGVFRKFATDNNCHVTLVIHPRKEDDDKELQTASIFGSAKASQEADNVLILQDRKLVTGPGKRYLQVSKNRFDGDVGVFPLEFNKNSLTFSIPPKNKARLKKIKDDTGPVAKKPSSGKKGATTQNSEICSGQAPTPDQPDTSKRSK
# Chain of UniProt A0A348FUE1 (whole entry, looked up): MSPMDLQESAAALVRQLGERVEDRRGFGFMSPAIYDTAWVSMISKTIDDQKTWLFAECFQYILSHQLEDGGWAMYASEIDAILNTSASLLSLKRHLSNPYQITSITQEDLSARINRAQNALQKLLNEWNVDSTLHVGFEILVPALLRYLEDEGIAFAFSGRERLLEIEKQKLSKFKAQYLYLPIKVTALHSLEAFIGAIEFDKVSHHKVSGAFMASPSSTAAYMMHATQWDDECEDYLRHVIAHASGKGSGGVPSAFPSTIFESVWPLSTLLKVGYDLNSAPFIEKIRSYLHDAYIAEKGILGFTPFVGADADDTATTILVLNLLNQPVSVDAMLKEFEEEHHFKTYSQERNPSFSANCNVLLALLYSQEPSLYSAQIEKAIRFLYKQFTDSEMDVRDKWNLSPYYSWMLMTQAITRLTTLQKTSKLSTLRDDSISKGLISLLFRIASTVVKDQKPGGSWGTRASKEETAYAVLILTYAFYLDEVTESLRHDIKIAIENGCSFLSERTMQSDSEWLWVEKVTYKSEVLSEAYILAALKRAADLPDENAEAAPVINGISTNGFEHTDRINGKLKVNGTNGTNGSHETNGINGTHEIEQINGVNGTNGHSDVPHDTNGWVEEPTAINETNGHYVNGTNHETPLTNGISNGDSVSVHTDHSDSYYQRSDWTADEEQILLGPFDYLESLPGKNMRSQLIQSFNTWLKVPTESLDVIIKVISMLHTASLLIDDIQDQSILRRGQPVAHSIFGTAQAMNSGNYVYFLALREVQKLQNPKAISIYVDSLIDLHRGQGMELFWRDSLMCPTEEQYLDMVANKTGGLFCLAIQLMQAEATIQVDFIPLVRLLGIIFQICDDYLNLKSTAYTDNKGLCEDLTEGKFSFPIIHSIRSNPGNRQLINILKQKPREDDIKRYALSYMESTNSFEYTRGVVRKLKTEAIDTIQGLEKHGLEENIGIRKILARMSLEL
Molecule,target or system,test,system,setting,scale,quantity,result
GUUUAUUUC (ssRNA),U2AF2,sequencing of bound RNA,RNA,motif only,,Kd,6.26 µM
B1 (mcsB C167A),itself,SEC,,,,subunits per oligomer,2
B2 (SSO0001 Cas4 1-202),itself,X-ray crystallography,,,,subunits per oligomer,10 protomers
B3 (DPA 6-281),itself,SEC,,,,subunits per oligomer,2
B4 (SUN5),itself,cryo-EM structure,,,,subunits per oligomer,3
B5 (naaA 1-425),itself,SEC-SAXS,,,,subunits per oligomer,8
UCUCUACUA (ssRNA),U2AF2,sequencing of bound RNA,RNA,motif only,,Kd,2.24 µM
B6 (gapA 2-331),itself,SEC,,,,subunits per oligomer,4
B7 (TGFBI 45-632 R124H),itself,SEC,,,,subunits per oligomer,2
B8 (ccmK2 1-102),itself,SEC,,,,subunits per oligomer,6
B9 (Pah F80A),itself,native gel,,,,subunits per oligomer,2
human TUBB2A,PP6C (human),"co-immunoprecipitation, IP-MS",CYB5R4 knockout cells,concentration not given,reference: CYB5R4 knockout over parental,log2 fold change,-0.59
B10 (ADAR1 127-end 127-1226 I872T),itself,SEC,,,,subunits per oligomer,2
"protein (Penicillium verruculosum, UniProt A0A348FUE1)",itself,SEC-MALS,,,,subunits per oligomer,2
POTE ankyrin domain F (human),CYB5R4 knockout human cells,"PP6 interaction, 3xFLAG-PP6C IP-MS",,concentration not given,reference: CYB5R4 KO over parental,log2 fold change,0.09
B11 (TWNK 43-684),itself,SEC,,,,subunits per oligomer,6

# Some of these lines once more:
Molecule,target or system,test,system,setting,scale,quantity,result
B6 (gapA 2-331),itself,SEC,,,,subunits per oligomer,4
B7 (TGFBI 45-632 R124H),itself,SEC,,,,subunits per oligomer,2
